{"data": "Assay results pooled from the literature", "note": "Each numbered part is a random draw from the data of one study; scales do not carry over between parts. Substitutions count along the parent as printed."}
{"data": "Block 1", "target": "Interferon regulatory factor 5, full length, phosphomimetic (IRF5, Homo sapiens, UniProt Q13568-2, residues 1-514, S451D/S453D/S456D/S462D)", "technique": "protein-binding microarray", "form": "double-stranded DNA, one strand shown", "medium": "in vitro", "concentration": "940 nM top", "setting": "60-bp whole probe", "together with": "salmon DNA 0.4 mg/ml", "baseline": "random background probes", "direction": "higher = stronger binding", "all sequences stand within": "GCCTAGCAC … GTCTTGATTCGCTTGACGCTGCTG"}
{"Oligonucleotide": "TGTTTTTGCTTTCTTTTTGCGTGCTAG", "fitted relative affinity [z-score]": 2.01}
{"Oligonucleotide": "TTATGACTGCTTTTCCTTTAGTGCTAG", "fitted relative affinity [z-score]": 0.678}
{"Oligonucleotide": "TTAGGTATCGACTTTCGGTTAGTGCTA", "fitted relative affinity [z-score]": 5.9}
{"Oligonucleotide": "TCATGCTTGTATCTGGGACTGTGCTAG", "fitted relative affinity [z-score]": -0.208}
{"Oligonucleotide": "GCCGAACTGGGGACTGGAGACGTGCTA", "fitted relative affinity [z-score]": -0.0487}
{"Oligonucleotide": "TCACCAATCTCTCTTCAACTGTGCTAG", "fitted relative affinity [z-score]": 0.961}
{"Oligonucleotide": "TCATCTTGCTTTTTAGAACTGTGCTAG", "fitted relative affinity [z-score]": 0.694}
{"Oligonucleotide": "TTAGGTTTCGACTTTCGGTCAGTGCTA", "fitted relative affinity [z-score]": 8.92}
{"Oligonucleotide": "GACGGACCGGGTTTCGGGACGTGCTAG", "fitted relative affinity [z-score]": 2.42}
{"data": "Block 2", "target": "Histone acetyltransferase KAT6A, winged helix 1, GST fusion (KAT6A, Homo sapiens, UniProt Q92794, residues 1-85)", "technique": "protein binding microarray", "form": "double-stranded DNA, one strand shown", "medium": "in vitro", "concentration": "not given", "setting": "8-mer, flanks averaged, mean of 2 arrays, mostly near background", "baseline": "not given", "direction": "higher = stronger binding", "Residues (chain)": "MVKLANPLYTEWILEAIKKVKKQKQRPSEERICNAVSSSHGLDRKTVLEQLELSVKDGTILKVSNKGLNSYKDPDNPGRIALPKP"}
{"Oligonucleotide": "ATGTCGAG", "E-score": -0.123}
{"Oligonucleotide": "AATTCTGA", "E-score": -0.152}
{"Oligonucleotide": "AATATATT", "E-score": -0.0397}
{"Oligonucleotide": "AGCGAATA", "E-score": -0.115}
{"Oligonucleotide": "TTCCGAAA", "E-score": -0.0904}
{"Oligonucleotide": "TAAAAAGA", "E-score": -0.15}
{"Oligonucleotide": "CGGCCACC", "E-score": 0.344}
{"Oligonucleotide": "ATAACAAC", "E-score": -0.0778}
{"Oligonucleotide": "ACTCGTAG", "E-score": -0.0923}
{"Oligonucleotide": "TATACTGA", "E-score": -0.13}
{"Oligonucleotide": "CCCAACCA", "E-score": -0.2}
{"Oligonucleotide": "AGGGGACT", "E-score": -0.271}
{"Oligonucleotide": "AAACACTT", "E-score": -0.175}
{"Oligonucleotide": "ACATCCAT", "E-score": -0.0813}
{"Oligonucleotide": "GGTTGCCA", "E-score": 0.082}
{"Oligonucleotide": "TCTATGAA", "E-score": -0.0748}
{"Oligonucleotide": "GTTGATTA", "E-score": -0.113}
{"Oligonucleotide": "CCGATTAG", "E-score": 0.0195}
{"Oligonucleotide": "TCTACTCA", "E-score": -0.0384}
{"Oligonucleotide": "ACGAGCAA", "E-score": -0.18}
{"Oligonucleotide": "CGTCCTAG", "E-score": 0.0283}
{"Oligonucleotide": "GCACCCAA", "E-score": 0.000135}
{"Oligonucleotide": "GAGCTGAC", "E-score": -0.118}
{"Oligonucleotide": "CGGTACCA", "E-score": 0.114}
{"Oligonucleotide": "CGAGTTGA", "E-score": -0.182}
{"data": "Block 3", "target": "CCNF, cyclin fold, Cln2 fusion (human)", "technique": "yeast growth competition, sequencing", "medium": "yeast", "setting": "strong parent motif", "baseline": "not given", "direction": "higher = stronger binding", "starting sequence": "PKN2 docking peptide (human); VSAVRKLDFSDTM"}
{"Variant": "F9R", "normalised enrichment score": 0.171}
{"Variant": "L7D", "normalised enrichment score": -0.588}
{"Variant": "R5C", "normalised enrichment score": 2.48}
{"Variant": "T12K", "normalised enrichment score": 7.45}
{"Variant": "V4A", "normalised enrichment score": 7.26}
{"Variant": "S2M", "normalised enrichment score": 7.28}
{"Variant": "R5E", "normalised enrichment score": -0.381}
{"Variant": "S2V", "normalised enrichment score": 6.95}
{"Variant": "D8P", "normalised enrichment score": 4.94}
{"Variant": "R5W", "normalised enrichment score": 0.217}
{"Variant": "T12S", "normalised enrichment score": 6.97}
{"Variant": "S10E", "normalised enrichment score": 7.05}
{"Variant": "D11Y", "normalised enrichment score": 7.6}
{"Variant": "T12R", "normalised enrichment score": 7.7}
{"Variant": "V4W", "normalised enrichment score": 5.78}
{"Variant": "K6H", "normalised enrichment score": 6.84}
{"data": "Block 4", "target": "Sal-like protein 4, full length isoform A (SALL4, Homo sapiens, UniProt Q9UJQ4, residues 1-1053)", "technique": "universal PBM", "form": "double-stranded DNA, one strand shown", "medium": "in vitro", "concentration": "600 nM", "setting": "8-mer, flanks averaged, mean of replicates", "direction": "higher = stronger binding", "sequence of UniProt Q9UJQ4 (whole entry, looked up)": "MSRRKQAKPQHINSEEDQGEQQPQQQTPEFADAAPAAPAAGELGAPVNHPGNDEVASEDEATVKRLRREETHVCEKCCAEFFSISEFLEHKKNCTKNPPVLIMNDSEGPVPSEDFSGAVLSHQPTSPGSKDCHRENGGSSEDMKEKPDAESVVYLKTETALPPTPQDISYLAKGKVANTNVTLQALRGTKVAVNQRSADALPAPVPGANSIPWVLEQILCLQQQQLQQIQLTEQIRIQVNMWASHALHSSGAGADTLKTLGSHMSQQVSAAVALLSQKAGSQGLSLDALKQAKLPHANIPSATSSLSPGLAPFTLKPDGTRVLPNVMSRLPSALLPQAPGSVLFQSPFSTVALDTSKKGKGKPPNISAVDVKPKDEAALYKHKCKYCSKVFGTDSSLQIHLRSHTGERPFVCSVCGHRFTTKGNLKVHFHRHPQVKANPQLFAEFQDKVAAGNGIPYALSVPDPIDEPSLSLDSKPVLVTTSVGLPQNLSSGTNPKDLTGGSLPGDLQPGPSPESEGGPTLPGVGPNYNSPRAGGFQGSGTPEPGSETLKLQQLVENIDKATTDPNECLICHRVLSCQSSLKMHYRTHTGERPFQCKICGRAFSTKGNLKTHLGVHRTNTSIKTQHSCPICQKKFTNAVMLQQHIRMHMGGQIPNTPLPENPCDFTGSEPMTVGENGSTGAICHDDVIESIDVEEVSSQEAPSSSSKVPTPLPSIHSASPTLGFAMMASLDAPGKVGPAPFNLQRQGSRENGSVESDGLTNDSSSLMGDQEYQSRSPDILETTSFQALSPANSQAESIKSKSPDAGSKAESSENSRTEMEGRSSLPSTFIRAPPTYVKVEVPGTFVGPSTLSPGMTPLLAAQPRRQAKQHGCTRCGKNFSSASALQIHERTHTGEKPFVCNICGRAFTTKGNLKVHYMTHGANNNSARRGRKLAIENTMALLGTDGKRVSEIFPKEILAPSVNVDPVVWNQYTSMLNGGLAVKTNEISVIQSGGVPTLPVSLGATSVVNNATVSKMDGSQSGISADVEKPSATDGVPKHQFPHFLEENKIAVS"}
{"Oligonucleotide": "AGGGAGCA", "E-score": -0.27}
{"Oligonucleotide": "ATTCACGG", "E-score": 0.0421}
{"Oligonucleotide": "ATCCGACC", "E-score": -0.158}
{"Oligonucleotide": "AACCACCA", "E-score": -0.0355}
{"Oligonucleotide": "GCGAATAA", "E-score": 0.189}
{"Oligonucleotide": "CGATCCCC", "E-score": -0.269}
{"Oligonucleotide": "GGAACCCC", "E-score": -0.372}
{"Oligonucleotide": "ACATGCTG", "E-score": -0.103}
{"Oligonucleotide": "CGAGAATC", "E-score": -0.0845}
{"Oligonucleotide": "CTATTCCC", "E-score": -0.0939}
{"Oligonucleotide": "GCTGAGCC", "E-score": -0.266}
{"Oligonucleotide": "CGACCAAC", "E-score": -0.132}
{"note": "For quick reference, copied from above (block 2):"}
{"Oligonucleotide": "AGCGAATA", "E-score": -0.115}
{"Oligonucleotide": "ACATCCAT", "E-score": -0.0813}
{"Oligonucleotide": "ACGAGCAA", "E-score": -0.18}
{"Oligonucleotide": "TCTATGAA", "E-score": -0.0748}
{"Oligonucleotide": "CGAGTTGA", "E-score": -0.182}
{"Oligonucleotide": "CCCAACCA", "E-score": -0.2}
{"Oligonucleotide": "AATATATT", "E-score": -0.0397}
{"Oligonucleotide": "ACTCGTAG", "E-score": -0.0923}
{"Oligonucleotide": "AAACACTT", "E-score": -0.175}
{"Oligonucleotide": "TTCCGAAA", "E-score": -0.0904}
